Measured values collected from several papers.
Numbered parts are unrelated; each lists some results of a single study. Positions count from the first letter of the parent shown.

Study 1
Target: ABI1, truncated, D143A, DHFR fusion (Arabidopsis thaliana)
Technique: DHFR PCA, deep sequencing
Sample: yeast
Setting: methotrexate growth selection, single substitutions
With: (+)-ABA 0 µM
Baseline: wild-type fitted maximum
Reading: higher = stronger binding
Measurement: relative binding score
Starting sequence: PYL1, truncated, DHFR fusion (Arabidopsis thaliana); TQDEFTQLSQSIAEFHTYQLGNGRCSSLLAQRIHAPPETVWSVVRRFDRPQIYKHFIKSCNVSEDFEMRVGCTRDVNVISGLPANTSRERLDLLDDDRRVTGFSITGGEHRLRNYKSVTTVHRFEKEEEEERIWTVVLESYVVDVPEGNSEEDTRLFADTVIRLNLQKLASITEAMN; partner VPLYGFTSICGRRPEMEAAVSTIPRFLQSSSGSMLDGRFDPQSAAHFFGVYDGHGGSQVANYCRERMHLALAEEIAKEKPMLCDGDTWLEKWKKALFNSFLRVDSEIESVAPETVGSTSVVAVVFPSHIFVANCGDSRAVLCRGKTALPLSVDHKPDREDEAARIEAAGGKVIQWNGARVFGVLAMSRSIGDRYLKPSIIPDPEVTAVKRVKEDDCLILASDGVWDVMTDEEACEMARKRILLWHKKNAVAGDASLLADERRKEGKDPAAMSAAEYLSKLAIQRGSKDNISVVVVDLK
S80V: 4.57%
L8I: 7.1%
Q7E: 34%

Study 2
Target: RING finger protein unkempt homolog, zinc fingers 1-6, GST-SBP tag (UNK, Homo sapiens, UniProt Q9C0B0, residues 30-357)
Sequence of UniProt Q9C0B0 (30-357, looked up): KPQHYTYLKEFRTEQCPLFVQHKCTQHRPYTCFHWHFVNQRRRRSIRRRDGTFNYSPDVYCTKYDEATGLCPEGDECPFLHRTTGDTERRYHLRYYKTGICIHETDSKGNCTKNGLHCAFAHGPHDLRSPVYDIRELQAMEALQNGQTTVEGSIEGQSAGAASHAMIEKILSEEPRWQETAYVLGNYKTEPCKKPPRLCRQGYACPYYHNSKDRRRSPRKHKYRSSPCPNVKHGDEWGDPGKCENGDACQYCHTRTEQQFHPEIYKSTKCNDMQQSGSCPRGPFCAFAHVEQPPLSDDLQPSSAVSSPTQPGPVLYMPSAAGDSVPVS
Technique: RNA Bind-n-Seq
Molecule type: RNA
Sample: in vitro
Concentration: not given
Setting: RNA with constant flanks, human-mouse chimeric sites, ends assumed
Baseline: input RNA pool
Reading: higher = stronger binding
Measurement: bound/input enrichment
Constant ends, left off below: GGGAGUUCUACAGUCCGACGAUC … CAACAGAGGAUUGAGCAUCA
ACUCUUGACUCUUUCCAUCCUCUUCCUUUCCCUCUUGAUCUUCAAGGCCAUGAAUCCCAAAAUAACAGUCUUAGUGGCUAGCACCCAAACAGAGGUGGGUGCCAUCCACCCCAGUGUCUC: 0.583 ratio
CAGCGCCGAGGCCGCGGUUUCCCCCUGGGUGUGCUGAGCAGCAGCCAUGGGCAUCAAGUUUUUAGAAGUUAUCAAACCAUUCUGUGCAGUUCUACCAGAAAUUCAGAAACCGGAAAGGAA: 1.27 ratio
UUAAUCCCCUUUACUGCUCCCCCACUUCUCAUGGUAAUAACAAAGUCUUAUAUUCCCGUCCUAGCUUUCACUCAGAUGGCUUAUGGAGCCAGUUUCCUAGCUUUCUUGGGAGGGAUCAGA: 0.374 ratio
UUGGAAGGACCAGAGCCUAAUCAACUGAAACCAUUAGUCAUACAGGCUAUGCCCACCCUAAUAGAACUAAUGAAAGACCCCAGUGUAGUUGUUCGAGAUACAGCUGCGUGGACUGUGGGC: 0.467 ratio
UAAGUCCUGUGCCAGCACUUCGCUCAUAAAGUUUUAAAUUCAAGAAAAAUAGUGUUUGUUUCCUGAUUUUUGUAUUCAAUACUUUGCCUAGUAUGUAACUCACUCUUACUGAUAAUAAAA: 1.7 ratio

Study 3
Target: RNA binding protein fox-1 homolog 2, RRM domain, GST-SBP tag (RBFOX2, Homo sapiens, UniProt O43251-10, residues 100-194)
Technique: RNA Bind-n-Seq
Molecule type: RNA
Sample: in vitro
Concentration: 365 nM
Setting: natural RNA segment, single round, ends assumed
Baseline: no-protein control
Reading: higher = stronger binding
Measurement: RBNS enrichment (R)
Construct (chain): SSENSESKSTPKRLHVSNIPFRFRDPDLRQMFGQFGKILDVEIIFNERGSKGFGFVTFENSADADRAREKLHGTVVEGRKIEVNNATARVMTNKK
GGGAGUUCUACAGUCCGACGAUCCUUUUGUACUAUGGAGUUGUUUACAGUAAGCAUGACUGAACAAGCACUAACAUCCUCCUACACCGGUCCAUCGUGUUCGGCUCUGAUCAGGAAUAGACAAGGCUUCUUUGUGGAAUUCUCGGGUGCCAA: 26.4
GGGAGUUCUACAGUCCGACGAUCUGGAACGAGUCUGAUUCAUGGUGUUAAUAGAGGCUUCUUGUUUUAGGAAGCUUUGCUUACACUCUGGAGCCUUUACACUCUGAAGGAGAACUUCAGGGUUAUUCCAAGUAUGGAAUUCUCGGGUGCCAA: 0.365
GGGAGUUCUACAGUCCGACGAUCUCUACAGCAGAACUUUGAUGAAGAUGAAGGGAUUUUUUUGUACCUCACACUCACACCAGUGCAUUACACUAACCUUGUUCACUGGAUUGUCUGGGGUGACUUGGGCUCAUUGGAAUUCUCGGGUGCCAA: 0.398
GGGAGUUCUACAGUCCGACGAUCUAGGGCAUAUGCCAAGGAGGUUCUCACCUCCCUAAAGAAGGGACUUGAAUUUUAGGGACUUUAAUUCACCCCUCCUUCAAUACAACUUUCCCCCUUCUUGUUUGCACAUGUGGAAUUCUCGGGUGCCAA: 0.336

Further values, each from its own experiment
PhoQ, residues 284 288 289 292 302 303 SVTLVV  fold induction (PhoP, residues 12 14 15 18 19 DLLYY (Escherichia coli, UniProt P23836); Sort-seq, measured: YFP reporter; E. coli; PhoQ-PhoP variant library, with: 10 µM Mg2+; baseline: high Mg2+ state, higher = stronger signaling): 1.43

Some of these lines once more (study 1):
Q7E: 34%
